Measured values gathered from unrelated publications.
A part holds a random share of what one study measured. Changes are numbered by the printed parent chain.

Series 1
Target: RING finger protein unkempt homolog, zinc fingers 1-6, GST-SBP tag (UNK, Homo sapiens, UniProt Q9C0B0, residues 30-357)
Technique: RNA Bind-n-Seq
Form: RNA
Matrix: in vitro
Tested at: not given
Setting: RNA with constant flanks, human and mouse sites, ends assumed
Relative to: input RNA pool
Reading: higher = stronger binding
Endpoint: bound/input enrichment
Target sequence (chain): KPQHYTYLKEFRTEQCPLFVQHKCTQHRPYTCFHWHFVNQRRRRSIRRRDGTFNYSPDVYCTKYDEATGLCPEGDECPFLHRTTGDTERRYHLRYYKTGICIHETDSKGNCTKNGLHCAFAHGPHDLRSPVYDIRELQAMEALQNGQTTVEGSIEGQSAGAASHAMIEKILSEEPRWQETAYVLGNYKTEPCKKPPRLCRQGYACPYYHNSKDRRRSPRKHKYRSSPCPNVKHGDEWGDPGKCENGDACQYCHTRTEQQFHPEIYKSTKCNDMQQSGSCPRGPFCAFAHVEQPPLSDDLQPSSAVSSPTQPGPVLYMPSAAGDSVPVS
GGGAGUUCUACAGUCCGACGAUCUCUUCAAUUAUUGGAGAAAACAAGAAUUAUCUAGAACUUAGUAAGUUAUUAAAAAAGAAAGGAACUUCUACAUUUCUUCAAAGAUUGGAACGAGGAGAUCCAGUCACCAUAGCAUCACAACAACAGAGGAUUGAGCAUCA: 6.79 ratio
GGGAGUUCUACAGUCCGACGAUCACCAUUGCCUUGCUUGGUUACCUGAAGCACUACAGAAACAUUCCUGGACCCCACAUGGUUUUAGUUCCCAAGUCUACUUUACAUAACUGGAUGAAUGAAUUUAAACGAUGGGUUCCAUCUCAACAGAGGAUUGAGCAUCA: 0.0736 ratio
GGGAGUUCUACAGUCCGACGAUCGUGACCUGGGGGCAGGACCCAGAACUCAGGUCCCGCAUGAGCAGCACAUGCCCAUCCCUGCUGAGCCGUCUGUCAGAAAAGAAAGCUAUUCUUUCUGUUCUCAAGUGAACUUUCAUCUGUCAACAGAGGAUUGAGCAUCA: 0.123 ratio
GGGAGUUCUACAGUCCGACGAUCAAGACGCUGACGCGGCACCACCUGUACUGCGAGCCCCCCGUGGAGCAGCCCCUGCCACGGCACCAUGCCCUCCGAGAGGCACCUGACUCUUUGCCUGAGUUCACGGUGCAGAUGGGGAACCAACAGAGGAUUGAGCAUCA: 0.0911 ratio
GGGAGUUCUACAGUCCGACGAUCCCAGGAAAAGUGUCUGGCAGCCCUGAGCAAGCCGUGGAGGAAAACCUUAGUUCCUAUUCCUUAGACAGAAGAGUGACACCCGCCUCUGAGACCCUAGAAGACCCUUGCAGGACAGAGUCCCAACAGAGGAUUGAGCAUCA: 0.831 ratio
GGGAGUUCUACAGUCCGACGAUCGCUGCCUCUAUCUUGUUUUUUGUUUUUUCUUCUGGGGGGGGUCUAGAACAGUGCCUGGCACAUAGUAGGCGCUCAAUAAAUACUUGUUUGUUGAAUGUCUCCUCUCUCUUUCCACUCUGGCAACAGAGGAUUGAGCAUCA: 0.638 ratio
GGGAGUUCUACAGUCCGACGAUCACAAAAACAGUCAUUAAAGAAGGUGAAGAACAACUUCAGACUCAGCAUCAGAAAACUUUUAUAGGAAAAAUUCCAAUUAUGUUGCGGUCAACUUACUGCCUUUUGAAUGGCUUGACAGAUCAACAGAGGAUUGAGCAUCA: 0.263 ratio
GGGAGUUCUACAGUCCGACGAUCUGCUAUGACUGAGGUGGCCUCCAGGCUCUCUGCACACUUACAGAUUUUUUUAACGGGAUCAAAUUGUACAUGCUGUUUUGUAACUUUUUCACUCAACAGUCCCAUGCCUAUCUUGCUGUGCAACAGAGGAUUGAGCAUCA: 0.0936 ratio
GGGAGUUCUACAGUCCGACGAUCGAAAAACUUUUUGCUGAAGACACAGAAGCAAAGAACCCAUUUUCUACUCAGGACACAGAUUUAGACUUGGAGAUGUUAGCUCCCUAUAUCCCAAUGGAUGAUGACUUCCAGUUACGUUCCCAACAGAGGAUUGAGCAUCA: 0.383 ratio
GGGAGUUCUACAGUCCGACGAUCAGAGCUGGCACACCGAUUCUGGGAAGCCCCGCGAAUGAUGGCUUUUGAAUUAAUGAGGCAGUGAAUGUUUUGUGUUUACUUCUAAGGGAAAUACUAACUUUCUUUCGCAUUAGUAUUAAUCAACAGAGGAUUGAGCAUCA: 0.735 ratio
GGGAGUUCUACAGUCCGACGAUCCCUGACAAGCUGAACAAUGGUGGAUCUGAUAGCCCAUGUGACUUGAAAUCACCUAGUGCUUUUAGUGAAAACCGGCAGGACUAUUUUGAAUAUGAGUCAACUAACCCGUUUACAGCAAAACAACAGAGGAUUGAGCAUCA: 0.22 ratio

Series 2
Target: Sal-like protein 4, full length isoform A (SALL4, Homo sapiens, UniProt Q9UJQ4, residues 1-1053)
Chain of UniProt Q9UJQ4 (whole entry, looked up): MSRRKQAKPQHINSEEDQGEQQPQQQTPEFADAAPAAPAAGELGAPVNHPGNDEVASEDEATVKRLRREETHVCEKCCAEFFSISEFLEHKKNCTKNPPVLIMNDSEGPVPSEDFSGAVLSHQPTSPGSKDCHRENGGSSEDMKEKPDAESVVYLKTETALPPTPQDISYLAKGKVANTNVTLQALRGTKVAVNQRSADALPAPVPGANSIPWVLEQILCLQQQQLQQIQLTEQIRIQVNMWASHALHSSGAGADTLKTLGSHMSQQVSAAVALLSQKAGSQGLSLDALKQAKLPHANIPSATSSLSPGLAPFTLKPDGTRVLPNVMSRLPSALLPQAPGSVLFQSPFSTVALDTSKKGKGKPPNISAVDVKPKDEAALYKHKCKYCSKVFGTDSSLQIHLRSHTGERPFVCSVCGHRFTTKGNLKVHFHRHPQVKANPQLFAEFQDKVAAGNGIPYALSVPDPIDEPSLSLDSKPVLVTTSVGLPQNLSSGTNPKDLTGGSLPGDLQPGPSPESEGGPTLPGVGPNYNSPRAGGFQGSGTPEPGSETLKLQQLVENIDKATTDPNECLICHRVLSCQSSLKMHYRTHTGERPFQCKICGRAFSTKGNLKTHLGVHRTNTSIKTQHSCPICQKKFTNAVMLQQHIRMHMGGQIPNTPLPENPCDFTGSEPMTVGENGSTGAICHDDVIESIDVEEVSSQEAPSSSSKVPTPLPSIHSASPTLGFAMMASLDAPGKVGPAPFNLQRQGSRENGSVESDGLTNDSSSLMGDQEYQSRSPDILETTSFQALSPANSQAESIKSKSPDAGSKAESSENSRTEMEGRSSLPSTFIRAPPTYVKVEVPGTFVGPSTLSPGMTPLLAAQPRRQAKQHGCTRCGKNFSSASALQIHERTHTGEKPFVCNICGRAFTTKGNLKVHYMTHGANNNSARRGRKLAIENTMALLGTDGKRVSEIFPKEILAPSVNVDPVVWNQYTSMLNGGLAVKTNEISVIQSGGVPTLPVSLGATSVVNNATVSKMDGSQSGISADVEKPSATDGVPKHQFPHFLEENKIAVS
Technique: universal PBM
Form: double-stranded DNA, one strand shown
Matrix: in vitro
Tested at: 600 nM
Setting: 8-mer, flanks averaged, mean of replicates
Reading: higher = stronger binding
Endpoint: E-score
GAATCTCC: -0.133
CACTGCGG: -0.2
CAGACAAG: 0.00936
AAGGCACA: 0.0649
CCGGTCGC: -0.343
CGTGTGGC: -0.179
CCCGACAA: 0.0358
CGGGTTAA: -0.122
ACTGGACG: -0.153
ACCTCCCC: -0.265
GAGGCAGC: -0.199
TACTTGGA: 0.171
AGATACGG: 0.0118

Series 3
Target: CCND1, cyclin fold, Cln2 fusion (human)
Technique: yeast growth competition, sequencing
Matrix: yeast
Setting: strong parent motif
Relative to: not given
Reading: higher = stronger binding
Endpoint: normalised enrichment score
Parent: PKN2 docking peptide (human); VSAVQKLDFSDTM
VSAVQKLDFSDMM [T12M]: 1.85
VSAVQKLDFSSTM [D11S]: 1.88
NSAVQKLDFSDTM [V1N]: 1.94
VSAVQKLNFSDTM [D8N]: 0.976
VSAVQYLDFSDTM [K6Y]: 1.89
VSAVQKVDFSDTM [L7V]: 0.0637
GSAVQKLDFSDTM [V1G]: 1.7

Single results of other studies
PhoQ, residues 284 288 289 292 302 303 TLSLKA  fold induction (PhoP, residues 12 14 15 18 19 NFCKL (Escherichia coli, UniProt P23836); Sort-seq, measured: YFP reporter; E. coli; PhoQ-PhoP variant library, with: 10 µM Mg2+; relative to: high Mg2+ state, higher = stronger signaling): 1.33

Repeated from above (series 3):
NSAVQKLDFSDTM [V1N]: 1.94
VSAVQKLNFSDTM [D8N]: 0.976
VSAVQYLDFSDTM [K6Y]: 1.89
